Results pooled from the literature.
Numbered parts are unrelated; each lists some results of a single study.
Chain of UniProt Q8NEB9 (whole entry, looked up): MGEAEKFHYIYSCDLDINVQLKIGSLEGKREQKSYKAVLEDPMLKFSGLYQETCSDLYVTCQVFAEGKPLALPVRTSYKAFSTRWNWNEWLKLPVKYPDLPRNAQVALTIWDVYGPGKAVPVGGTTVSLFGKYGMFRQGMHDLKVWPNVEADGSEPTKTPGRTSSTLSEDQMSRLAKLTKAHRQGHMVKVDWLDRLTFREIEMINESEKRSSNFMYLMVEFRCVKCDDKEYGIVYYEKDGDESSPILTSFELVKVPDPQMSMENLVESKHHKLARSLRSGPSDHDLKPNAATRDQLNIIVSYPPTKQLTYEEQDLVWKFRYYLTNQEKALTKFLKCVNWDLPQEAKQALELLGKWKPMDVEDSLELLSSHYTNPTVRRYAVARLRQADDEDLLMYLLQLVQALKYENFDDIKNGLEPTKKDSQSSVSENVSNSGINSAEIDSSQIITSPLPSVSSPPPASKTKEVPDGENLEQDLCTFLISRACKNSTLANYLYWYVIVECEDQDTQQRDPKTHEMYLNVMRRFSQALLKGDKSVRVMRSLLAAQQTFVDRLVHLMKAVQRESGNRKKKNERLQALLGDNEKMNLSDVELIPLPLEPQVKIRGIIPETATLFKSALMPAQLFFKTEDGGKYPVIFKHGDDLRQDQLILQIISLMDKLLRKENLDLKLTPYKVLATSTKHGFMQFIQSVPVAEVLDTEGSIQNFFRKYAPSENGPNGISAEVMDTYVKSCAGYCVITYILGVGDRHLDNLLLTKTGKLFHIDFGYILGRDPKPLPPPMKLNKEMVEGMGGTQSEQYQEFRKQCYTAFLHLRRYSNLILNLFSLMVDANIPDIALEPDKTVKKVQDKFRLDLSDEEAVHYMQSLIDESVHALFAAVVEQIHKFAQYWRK
Chain of UniProt Q96Q40 (whole entry, looked up): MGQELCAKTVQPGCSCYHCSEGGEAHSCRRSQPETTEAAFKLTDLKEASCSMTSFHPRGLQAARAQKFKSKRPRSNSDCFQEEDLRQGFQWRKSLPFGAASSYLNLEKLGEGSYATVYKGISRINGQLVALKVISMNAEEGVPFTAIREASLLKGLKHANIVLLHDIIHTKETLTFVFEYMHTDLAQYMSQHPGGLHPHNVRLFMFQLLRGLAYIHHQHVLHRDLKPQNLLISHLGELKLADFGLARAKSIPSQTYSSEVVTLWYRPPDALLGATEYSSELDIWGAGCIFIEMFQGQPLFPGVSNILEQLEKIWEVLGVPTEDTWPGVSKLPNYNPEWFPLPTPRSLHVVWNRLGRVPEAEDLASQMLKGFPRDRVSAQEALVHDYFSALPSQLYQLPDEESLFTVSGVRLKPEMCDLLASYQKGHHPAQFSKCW
Chain of UniProt P49760 (whole entry, looked up): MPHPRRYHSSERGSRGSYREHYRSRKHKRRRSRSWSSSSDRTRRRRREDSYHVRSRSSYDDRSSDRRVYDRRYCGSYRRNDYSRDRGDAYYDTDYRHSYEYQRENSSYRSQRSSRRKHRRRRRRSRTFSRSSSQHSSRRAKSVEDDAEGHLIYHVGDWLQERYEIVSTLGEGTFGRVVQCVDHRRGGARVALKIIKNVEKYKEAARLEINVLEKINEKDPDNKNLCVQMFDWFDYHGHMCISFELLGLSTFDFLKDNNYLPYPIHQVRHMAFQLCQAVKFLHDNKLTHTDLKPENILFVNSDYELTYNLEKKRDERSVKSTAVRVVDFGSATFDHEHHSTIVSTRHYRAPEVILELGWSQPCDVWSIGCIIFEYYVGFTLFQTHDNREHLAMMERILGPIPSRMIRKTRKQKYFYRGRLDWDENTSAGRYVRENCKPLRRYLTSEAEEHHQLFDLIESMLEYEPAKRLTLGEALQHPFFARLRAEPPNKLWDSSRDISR
Chain of UniProt P16591 (whole entry, looked up): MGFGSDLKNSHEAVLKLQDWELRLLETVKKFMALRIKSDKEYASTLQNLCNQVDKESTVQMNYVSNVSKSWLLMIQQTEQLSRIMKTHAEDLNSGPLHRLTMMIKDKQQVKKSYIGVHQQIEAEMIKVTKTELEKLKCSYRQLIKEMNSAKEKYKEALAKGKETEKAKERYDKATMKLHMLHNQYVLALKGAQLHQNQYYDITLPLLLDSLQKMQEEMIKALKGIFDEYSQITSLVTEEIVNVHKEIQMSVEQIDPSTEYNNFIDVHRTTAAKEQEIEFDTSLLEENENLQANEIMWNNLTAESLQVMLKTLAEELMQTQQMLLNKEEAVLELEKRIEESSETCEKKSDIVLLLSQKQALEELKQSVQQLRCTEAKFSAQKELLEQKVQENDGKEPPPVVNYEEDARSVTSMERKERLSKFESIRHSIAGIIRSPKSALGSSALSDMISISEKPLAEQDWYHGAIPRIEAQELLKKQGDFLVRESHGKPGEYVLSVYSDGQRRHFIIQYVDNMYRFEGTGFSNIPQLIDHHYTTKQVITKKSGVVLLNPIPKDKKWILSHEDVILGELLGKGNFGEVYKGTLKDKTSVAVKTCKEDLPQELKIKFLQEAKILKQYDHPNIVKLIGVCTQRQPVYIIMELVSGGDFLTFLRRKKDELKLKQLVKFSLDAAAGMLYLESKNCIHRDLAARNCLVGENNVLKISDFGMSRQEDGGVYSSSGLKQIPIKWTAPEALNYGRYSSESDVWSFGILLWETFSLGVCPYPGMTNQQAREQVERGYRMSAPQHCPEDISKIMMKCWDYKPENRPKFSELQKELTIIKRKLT
Chain of UniProt Q8WXR4 (whole entry, looked up): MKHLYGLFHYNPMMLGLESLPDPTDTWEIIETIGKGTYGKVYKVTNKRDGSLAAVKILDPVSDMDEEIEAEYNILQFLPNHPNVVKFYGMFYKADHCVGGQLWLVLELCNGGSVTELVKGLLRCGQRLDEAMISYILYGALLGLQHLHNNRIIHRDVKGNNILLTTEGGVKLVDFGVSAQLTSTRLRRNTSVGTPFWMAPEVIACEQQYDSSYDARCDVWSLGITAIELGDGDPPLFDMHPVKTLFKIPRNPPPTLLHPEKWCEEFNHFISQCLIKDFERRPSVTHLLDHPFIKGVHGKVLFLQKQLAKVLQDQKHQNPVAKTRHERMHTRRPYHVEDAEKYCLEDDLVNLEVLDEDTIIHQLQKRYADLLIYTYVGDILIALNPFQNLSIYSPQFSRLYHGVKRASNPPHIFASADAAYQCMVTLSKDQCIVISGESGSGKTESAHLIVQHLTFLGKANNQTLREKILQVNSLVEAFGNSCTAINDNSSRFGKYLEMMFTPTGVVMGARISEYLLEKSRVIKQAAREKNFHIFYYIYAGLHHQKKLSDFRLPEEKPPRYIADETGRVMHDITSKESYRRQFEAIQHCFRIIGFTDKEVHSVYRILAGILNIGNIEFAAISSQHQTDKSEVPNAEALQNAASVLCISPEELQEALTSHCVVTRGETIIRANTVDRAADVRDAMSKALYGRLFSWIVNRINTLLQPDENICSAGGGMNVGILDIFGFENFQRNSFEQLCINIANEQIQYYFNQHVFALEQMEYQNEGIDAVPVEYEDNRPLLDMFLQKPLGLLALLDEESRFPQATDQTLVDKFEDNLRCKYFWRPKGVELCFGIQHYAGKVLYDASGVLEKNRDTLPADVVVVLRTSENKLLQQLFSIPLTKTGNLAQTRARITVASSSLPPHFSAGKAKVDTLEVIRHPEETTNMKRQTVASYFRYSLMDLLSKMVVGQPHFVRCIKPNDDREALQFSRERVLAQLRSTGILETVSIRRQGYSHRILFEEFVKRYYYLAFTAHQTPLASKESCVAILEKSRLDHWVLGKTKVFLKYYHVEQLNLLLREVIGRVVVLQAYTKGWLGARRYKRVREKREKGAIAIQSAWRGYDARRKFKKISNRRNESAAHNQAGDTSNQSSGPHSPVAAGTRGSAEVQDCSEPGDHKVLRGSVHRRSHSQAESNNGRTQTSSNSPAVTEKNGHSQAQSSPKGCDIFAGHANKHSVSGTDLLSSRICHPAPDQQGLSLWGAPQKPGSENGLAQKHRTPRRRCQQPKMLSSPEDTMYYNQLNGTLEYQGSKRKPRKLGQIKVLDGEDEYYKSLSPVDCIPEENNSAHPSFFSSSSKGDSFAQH
Chain of UniProt P78356 (whole entry, looked up): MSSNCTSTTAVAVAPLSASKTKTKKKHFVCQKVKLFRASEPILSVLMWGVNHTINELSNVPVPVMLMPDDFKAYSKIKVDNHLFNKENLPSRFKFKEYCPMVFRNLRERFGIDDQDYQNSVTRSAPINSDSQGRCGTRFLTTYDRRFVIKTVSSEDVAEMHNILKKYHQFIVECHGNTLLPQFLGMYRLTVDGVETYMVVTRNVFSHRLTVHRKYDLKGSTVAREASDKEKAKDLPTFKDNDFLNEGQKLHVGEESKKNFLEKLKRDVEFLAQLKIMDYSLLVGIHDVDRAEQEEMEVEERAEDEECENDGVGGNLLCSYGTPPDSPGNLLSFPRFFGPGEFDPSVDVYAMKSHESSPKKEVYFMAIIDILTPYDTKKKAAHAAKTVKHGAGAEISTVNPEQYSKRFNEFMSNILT

Set 1 — SMILES: CC(C)(O)c1cncc(-c2nc3ccc(F)cc3n2C2CC2)c1; method: competition with immobilised ligand; concentration: 1 µM; quantity: remaining binding
target = STK39 (Homo sapiens, UniProt Q9UEW8); test = cell-free assay; value = 100%
target = CDK15 (Homo sapiens, UniProt Q96Q40); test = cell-free assay; value = 84%
target = MKNK1 (Homo sapiens, UniProt Q9BUB5); test = cell-free assay; value = 100%
target = PKN2 (Homo sapiens, UniProt Q16513); test = cell-free assay; value = 100%
target = RET (Homo sapiens, UniProt P07949, M918T); test = cell-free assay; value = 100%
target = CAMKK2 (Homo sapiens, UniProt Q96RR4); test = cell-free assay; value = 100%
target = Aurora kinase B (AURKB, Homo sapiens, UniProt Q96GD4); test = cell-free assay; value = 100%
target = PIP4K2B (Homo sapiens, UniProt P78356); test = cell-free assay; value = 99%
target = CDK11A (Homo sapiens, UniProt Q9UQ88); test = binding; value = 100%
target = FLT3 (Homo sapiens, UniProt P36888, ITD); test = cell-free assay; value = 100%
target = DCLK2 (Homo sapiens, UniProt Q8N568); test = cell-free assay; value = 100%
target = PIK3C3 (Homo sapiens, UniProt Q8NEB9); test = cell-free assay; value = 100%
target = CLK2 (Homo sapiens, UniProt P49760); test = cell-free assay; value = 100%
target = SGK2 (Homo sapiens, UniProt Q9HBY8); test = cell-free assay; value = 100%
target = WNK4 (Homo sapiens, UniProt Q96J92); test = cell-free assay; value = 100%
target = Myosin-IIIb (MYO3B, Homo sapiens, UniProt Q8WXR4); test = binding; value = 71%
target = Ribosomal protein S6 kinase alpha-3, C-terminal kinase domain (RPS6KA3, Homo sapiens, UniProt P51812); test = cell-free assay; value = 69%
target = TNNI3K (Homo sapiens, UniProt Q59H18); test = cell-free assay; value = 100%
target = IRAK3 (Homo sapiens, UniProt Q9Y616); test = cell-free assay; value = 100%
target = INSRR (Homo sapiens, UniProt P14616); test = cell-free assay; value = 100%
target = FER (Homo sapiens, UniProt P16591); test = cell-free assay; value = 100%
target = ROCK2 (Homo sapiens, UniProt O75116); test = cell-free assay; value = 92%
target = PRKX (Homo sapiens, UniProt P51817); test = cell-free assay; value = 100%
target = Macrophage colony-stimulating factor 1 receptor, autoinhibited (CSF1R, Homo sapiens, UniProt P07333); test = cell-free assay; value = 100%
target = VRK2 (Homo sapiens, UniProt Q86Y07); test = cell-free assay; value = 100%

Set 2 — observed: enzyme activity; action: inhibitor; concentration: 0.5 µM; baseline: control; quantity: remaining activity
Target: Serine/threonine-protein kinase D3 (PRKD3, Homo sapiens, UniProt O94806)
Target sequence (O94806 1-890): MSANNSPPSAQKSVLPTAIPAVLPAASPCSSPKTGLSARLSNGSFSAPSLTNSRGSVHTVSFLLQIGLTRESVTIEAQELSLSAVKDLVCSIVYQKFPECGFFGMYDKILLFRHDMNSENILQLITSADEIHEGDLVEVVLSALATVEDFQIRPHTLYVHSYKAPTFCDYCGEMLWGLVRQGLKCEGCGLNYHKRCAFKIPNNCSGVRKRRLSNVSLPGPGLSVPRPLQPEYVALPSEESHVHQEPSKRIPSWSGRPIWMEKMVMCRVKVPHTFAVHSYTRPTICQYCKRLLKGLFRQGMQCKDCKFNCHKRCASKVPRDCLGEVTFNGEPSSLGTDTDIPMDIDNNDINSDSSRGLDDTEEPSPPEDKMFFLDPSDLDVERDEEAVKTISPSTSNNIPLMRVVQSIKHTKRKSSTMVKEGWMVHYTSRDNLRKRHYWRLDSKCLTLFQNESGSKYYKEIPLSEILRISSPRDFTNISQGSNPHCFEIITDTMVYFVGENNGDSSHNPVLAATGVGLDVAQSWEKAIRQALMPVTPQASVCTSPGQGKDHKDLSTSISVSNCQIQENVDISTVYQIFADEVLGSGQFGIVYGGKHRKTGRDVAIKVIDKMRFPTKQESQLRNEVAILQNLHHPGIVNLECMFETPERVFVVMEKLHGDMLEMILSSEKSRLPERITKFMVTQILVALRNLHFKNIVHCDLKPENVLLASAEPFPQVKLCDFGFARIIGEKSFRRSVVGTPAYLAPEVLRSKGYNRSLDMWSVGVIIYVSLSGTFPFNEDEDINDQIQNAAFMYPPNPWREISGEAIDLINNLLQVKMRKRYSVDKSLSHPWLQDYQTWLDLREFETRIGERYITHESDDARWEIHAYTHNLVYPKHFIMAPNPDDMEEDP
SMILES = FC(F)(F)c1ccc(/C=C/c2nc(COc3ccc(CCCCn4ccnn4)cc3)co2)cc1; value = 93.3%
SMILES = CC(C)(C)c1nc2c3cc[nH]c(=O)c3c3cc(F)ccc3c2[nH]1; value = 10.8%
SMILES = N#C/C(=C(/N)SC1C=CC=CC1)c1cccc(C(O)c2ccncc2)c1 (stereo not shown); value = 96.3%
SMILES = NC(=O)c1cccc(-c2cc(Nc3ccc(OC(F)(F)F)cc3)ncn2)c1; value = 93.2%
SMILES = CNc1cc2c(Nc3cccc(Br)c3)ncnc2cn1; value = 78.5%
SMILES = CC(C)n1cnc2c(Nc3cccc(Cl)c3)nc(NCCO)nc21; value = 88.4%
SMILES = CC(C)N(CCC(=O)c1ccc2ccccc2c1)Cc1ccccc1; value = 98.1%
SMILES = N#CC(c1ccnc(NCCc2cccnc2)n1)c1nc2ccccc2s1 (stereo not shown); value = 64.7%
SMILES = O=C(O)/C=C/c1cc(Br)c(Br)c(Br)c1Br; value = 87.9%
SMILES = O=C1NC(=O)/C(=C/c2ccc3c(c2)OC(F)(F)O3)S1; value = 91.4%
SMILES = Clc1ccc(Nc2nnc(Cc3ccncc3)c3ccccc23)cc1; value = 94.7%
SMILES = O=C1c2ccccc2-c2nc3nnnn3nc21; value = 83.4%
SMILES = NC(=O)c1ccc(-c2nc(-c3ccc4c(c3)OCCO4)c(-c3ccccn3)[nH]2)cc1; value = 85.1%
SMILES = COc1cc2c(N3CCN(C(=O)Nc4ccc(OC(C)C)cc4)CC3)ncnc2cc1OCCCN1CCCCC1; value = 97.3%
SMILES = O=c1c(-c2ccc(F)cc2)c(-c2ccncc2)[nH]n1-c1ccc(Cl)cc1; value = 74.5%
SMILES = O=C(c1ccccc1)c1ccc(N2CCOCC2)cc1O; value = 96.1%
SMILES = C[C@@H](N)[C@H]1CC[C@H](C(=O)Nc2ccncc2)CC1; value = 87.3%
SMILES = CCCCc1c(-c2ccc(O)cc2)[nH]c2nccnc12; value = 67.4%
SMILES = c1cc(-c2cnn3cc(-c4ccc(OCCN5CCCCC5)cc4)cnc23)ccn1; value = 73.2%
SMILES = Nc1nc(Nc2ccc(S(N)(=O)=O)cc2)nn1C(=S)Nc1c(F)cccc1F; value = 7.37%
SMILES = O=Nc1c(-c2c(O)[nH]c3ccccc23)[nH]c2ccccc12; value = 88.4%
SMILES = CCN(CC)CCCCN1c2ccccc2Oc2ccc(Cl)cc21; value = 97.1%

Set 3 — observed: enzyme activity; action: inhibitor; concentration: 10 µM; quantity: inhibition
Target: Calcium/calmodulin-dependent protein kinase type II subunit alpha (CAMK2A, Homo sapiens, UniProt Q9UQM7)
Chain of UniProt Q9UQM7 (whole entry, looked up): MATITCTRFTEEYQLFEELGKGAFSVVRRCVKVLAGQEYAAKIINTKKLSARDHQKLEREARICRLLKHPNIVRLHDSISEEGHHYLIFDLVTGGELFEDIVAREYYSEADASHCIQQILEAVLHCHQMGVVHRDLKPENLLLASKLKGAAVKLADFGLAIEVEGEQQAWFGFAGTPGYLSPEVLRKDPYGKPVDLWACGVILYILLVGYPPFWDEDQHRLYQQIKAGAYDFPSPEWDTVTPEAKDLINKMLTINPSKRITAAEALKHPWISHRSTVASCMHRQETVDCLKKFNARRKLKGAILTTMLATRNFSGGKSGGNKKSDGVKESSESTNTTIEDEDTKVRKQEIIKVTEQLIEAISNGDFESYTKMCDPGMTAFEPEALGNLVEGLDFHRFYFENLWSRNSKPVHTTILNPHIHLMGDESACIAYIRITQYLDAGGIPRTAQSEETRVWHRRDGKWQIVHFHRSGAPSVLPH
SMILES = CC(=O)N[C@@H](CC(=O)O)C(=O)O; value = 12%
SMILES = CC(=O)CC(=O)CCC(=O)O; value = -10%
SMILES = COc1cccc(CC(=O)O)c1; value = -28%
SMILES = CSC(=O)OCC1=C[C@H](O)[C@@H]2C(C(=O)O)=CO[C@@H](O[C@@H]3O[C@H](CO)[C@@H](O)[C@H](O)[C@H]3O)[C@H]12; value = -6%
SMILES = CC(C)=CCC/C(C)=C/COc1ccc2ccc(=O)oc2c1; value = -10%
SMILES = CCC(C)c1nccnc1OC (stereo not shown); value = -55%
SMILES = CC(=O)c1c(C)c([N+](=O)[O-])c(C(C)(C)C)c([N+](=O)[O-])c1C; value = 6%
SMILES = O=C1c2c(O)cc(O)cc2O[C@H](c2cc(O)c(O)c(O)c2)[C@H]1O; value = -50%
SMILES = C[C@@H](O)[C@H](O)[C@H](O)[C@@H](O)C=O; value = -44%
SMILES = CC1=CC[C@@H]2C[C@H]1C2(C)C; value = 3%
SMILES = Cc1ccc(C(C)C)cc1O; value = -4%
SMILES = COc1ccc(C(C)=O)c(O)c1; value = 3%
SMILES = CC(C)=CC/C=C(\C)[C@H]1CC[C@]2(C)[C@@H]1[C@H](O)C[C@@H]1[C@@]3(C)CC[C@H](O[C@@H]4O[C@H](CO)[C@@H](O)[C@H](O)[C@H]4O[C@@H]4O[C@H](CO)[C@@H](O)[C@H](O)[C@H]4O)C(C)(C)[C@@H]3CC[C@]12C; value = 18%
SMILES = O=c1oc2ccccc2cc1O; value = -22%
SMILES = C[C@H]1[C@H](C)CC[C@]2(C(=O)O)CC[C@]3(C)C(=CC[C@@H]4[C@@]5(C)CC[C@@H](O)C(C)(C)[C@@H]5CC[C@]43C)[C@H]12; value = -18%
SMILES = COc1ccc2c(c1OC)O[C@H]1c3ccc(O[C@@H]4O[C@H](CO)[C@@H](O)[C@H](O)[C@H]4O)cc3OC[C@@H]21; value = 2%
SMILES = C[C@@H]1O[C@@H](O[C@H]2[C@H](OC(=O)[C@]34CCC(C)(C)C[C@H]3C3=CC[C@@H]5[C@@]6(C)C[C@H](O)[C@H](O[C@@H]7O[C@H](CO)[C@@H](O)[C@H](O)[C@H]7O)C(CO)(CO)[C@@H]6CC[C@@]5(C)[C@]3(C)C[C@H]4O)OC[C@H](O)[C@@H]2O)[C@H](O)[C@H](O)[C@H]1O[C@@H]1OC[C@@H](O)[C@H](O[C@@H]2OC[C@](O)(CO)[C@H]2O)[C@H]1O; value = -23%
SMILES = CC1(C)Oc2cc3oc(=O)ccc3cc2C[C@@H]1O; value = -35%
SMILES = O[C@@H](CNC[C@H](O)[C@H]1CCc2cc(F)ccc2O1)[C@@H]1CCc2cc(F)ccc2O1; value = 4%

Set 4 — organism: Plasmodium berghei; action: inhibitor; cell line: Huh-7; strain: GFP-expressing, liver stage; concentration: 10 µM; time: 24 h; baseline: untreated control; quantity: infection rate
SMILES = O=C(Nc1ccccc1)c1ccccc1O; value = 35.4%
SMILES = C[C@]12C=CC(=O)C=C1CC[C@@H]1[C@@H]2C(=O)C[C@@]2(C)[C@H]1CC[C@]2(O)C(=O)CO; value = 89.2%
SMILES = CN(CCOc1ccc(CC2SC(=O)NC2=O)cc1)c1ccccn1 (stereo not shown); value = 74.4%
SMILES = Cc1cc(C(C)(C)C)c(O)c(C)c1CC1=NCCN1; value = 98%
SMILES = CC1=C(/C=C/C(C)=C/C=C/C(C)=C/C(=O)O)C(C)(C)CCC1; value = 67.8%
SMILES = CCCCOc1ccc(OCCCN2CCOCC2)cc1; value = 87.7%
SMILES = CC1(C)O[C@@H]2[C@@H](CO[C@@]3(COS(N)(=O)=O)OC(C)(C)O[C@@H]23)O1; value = 106%
SMILES = CO[C@H]1C[C@@H]2CC[C@@H](C)[C@@](O)(O2)C(=O)C(=O)N2CCCC[C@H]2C(=O)O[C@H]([C@H](C)C[C@@H]2CC[C@@H](O)[C@H](OC)C2)CC(=O)[C@H](C)/C=C(\C)[C@@H](O)[C@@H](OC)C(=O)[C@H](C)C[C@H](C)/C=C/C=C/C=C/1C; value = 16.9%
SMILES = O=C1NS(=O)(=O)c2ccccc21; value = 108%
SMILES = NC(=O)c1ccccc1O; value = 99.3%
SMILES = COc1ccc2[nH]c([S+]([O-])Cc3ncc(C)c(OC)c3C)nc2c1 (stereo not shown); value = 80.6%
SMILES = Oc1cccc(O)c1; value = 108%
SMILES = Nc1ccc(S(=O)(=O)Nc2cnc3ccccc3n2)cc1; value = 113%
SMILES = NC[C@H]1O[C@H](O[C@H]2[C@H](O)[C@@H](O[C@H]3O[C@H](CO)[C@@H](O)[C@H](N)[C@H]3O)[C@H](N)C[C@@H]2N)[C@H](N)C[C@@H]1O; value = 91.5%
SMILES = CC(C)(C)NCC(O)c1cc(O)cc(O)c1 (stereo not shown); value = 100%
SMILES = Cc1ccc(S(=O)(=O)NC(=O)NN2CCCCCC2)cc1; value = 75.7%
